# Published values from different studies.
# Lines come from different studies, so protocols differ. Values joined by “and” are separate records of one study, mostly repeats; a detail may differ. Numbers after ± are the reported error.
# Organism: Staphylococcus aureus
SMILES,assay,system,conditions,how to read,endpoint,value
CCC(=O)OCCSCCC(=O)N[C@H](CCN)C(=O)N[C@@H](CCN)C(=O)N[C@@H](CCN)C(=O)N[C@@H](CC(C)C)C(=O)N[C@H](Cc1ccccc1)C(=O)N[C@@H](CCN)C(=O)N[C@@H](CCN)C(=O)N[C@@H](CC(C)C)C(N)=O,,ATCC 6538,"24 h, 37 °C",,MBC,> 128 µM
CCCNC(=O)[C@H](Cc1ccc(O)cc1)NC(=O)[C@H](Cc1ccc(O)cc1)NC(=O)[C@H](NC(=O)[C@@H](NC(=O)[C@H](CC(N)=O)NC(=O)[C@@H](Cc1ccc(O)cc1)NC(=O)[C@@H](CC(C)C)NC)c1ccc(O)cc1)c1ccc(O)cc1,bacterial growth,,,,IC50,> 40 µM
COc1cc(OC)cc(B(O)O)c1,crystal violet,USA300 wild type,100 µM,reference: wild type untreated,biofilm formation,31.1% and 30.3% and 27.4%
CC[C@H](C)[C@@H]1NC(=O)[C@H](CO)NC(=O)[C@H](CCCCN)NC(=O)[C@@H]2CSSC[C@@H](C(=O)N[C@@H](Cc3ccc(O)cc3)C(N)=O)NC(=O)[C@H](CCCCN)NC(=O)[C@@H]3CSSC[C@H](NC(=O)[C@H](CCCNC(=N)N)NC(=O)[C@H](CC(C)C)NC(=O)[C@H](CC(=O)O)NC(=O)[C@H](CC(=O)O)NC(=O)[C@H](CCC(=O)O)NC(=O)[C@H](CC(N)=O)NC(=O)[C@H](Cc4c[nH]c5ccccc45)NC(=O)[C@@H]4CCCN4C(=O)CNC(=O)[C@H](CC(N)=O)NC(=O)[C@@H](NC(=O)CNC(=O)[C@H](Cc4ccccc4)NC(=O)CN)CSSC[C@H](NC(=O)[C@H](Cc4ccc(O)cc4)NC(=O)CNC(=O)CNC(=O)[C@H](CCCCN)NC(=O)[C@H](Cc4ccc(O)cc4)NC(=O)CNC(=O)[C@H](CCCCN)NC1=O)C(=O)N[C@@H](C)C(=O)N[C@@H](CCCCN)C(=O)NCC(=O)NCC(=O)N[C@@H](Cc1ccccc1)C(=O)N[C@@H](C(C)C)C(=O)N3)C(=O)N[C@@H](Cc1c[nH]cn1)C(=O)N[C@@H](CC(N)=O)C(=O)N[C@@H](Cc1c[nH]cn1)C(=O)N2,,467,"24 h, 37 °C, 99.9% killing",,MBC,2 µM
CC[C@H](C)[C@H](NC(=O)[C@H](Cc1ccccc1)NC(=O)[C@H](CCCCN)NC(=O)[C@H](CCCCN)NC(=O)CNC(=O)[C@H](C)NC(=O)[C@H](CC(N)=O)NC(=O)[C@H](CCCCN)NC(=O)[C@H](Cc1ccccc1)NC(=O)[C@H](CC(N)=O)NC(=O)[C@H](CCC(=O)O)NC(=O)[C@H](Cc1c[nH]c2ccccc12)NC(=O)[C@H](CC(C)C)NC(=O)[C@@H](N)CO)C(=O)N[C@@H](CC(C)C)C(=O)N[C@@H](CC(N)=O)C(=O)N[C@H](C(=O)N[C@@H](CC(C)C)C(=O)N[C@@H](CC(=O)O)C(=O)N[C@@H](CCCCN)C(N)=O)[C@@H](C)CC,time-kill colony count,ATCC 6538,2-4 x MIC,,time to eradication,≤ 10 min
CC[C@H](C)[C@H](NC(=O)CNC(=O)[C@H](CCCCN)NC(=O)[C@@H](NC(=O)[C@H](Cc1c[nH]c2ccccc12)NC(=O)[C@H](CCCCN)NC(=O)[C@H](Cc1ccccc1)NC(=O)[C@@H](NC(=O)[C@H](CCCCN)NC(=O)[C@H](CCCCN)NC(=O)[C@@H](NC(=O)[C@H](Cc1c[nH]c2ccccc12)NC(=O)[C@H](Cc1c[nH]c2ccccc12)NC(=O)[C@@H](N)CCCCN)[C@@H](C)CC)C(C)C)[C@@H](C)CC)C(=O)NCC(=O)N[C@@H](CCCCN)C(=O)N[C@@H](CCC(=O)O)C(=O)N[C@H](C(=O)N[C@H](C(=O)N[C@H](C(=O)N[C@@H](CCCNC(=N)N)C(=O)N[C@H](C(=O)NCC(=O)N[C@H](C(=O)N[C@@H](CCC(=O)O)C(=O)N[C@H](C(=O)N[C@@H](C)C(=O)N[C@@H](C)C(=O)N[C@@H](CS)C(=O)N[C@@H](CCCCN)C(=O)N[C@H](C(=O)N[C@@H](CCCCN)C(=O)NCC(=O)N[C@@H](CCC(=O)O)C(=O)N[C@@H](CS)C(N)=O)[C@@H](C)CC)[C@@H](C)CC)[C@@H](C)CC)[C@@H](C)O)[C@@H](C)CC)C(C)C)C(C)C,colony count,PBS,"20 µg/mL, 2 h",,bactericidal rate,100%
CC1COC2=C1C(=O)C(=O)c1c2ccc2c1C(OC(=O)CNC(=O)CN)CCC2(C)C (mixture of isomers),,,"10 µmol/mL, 48 h, 10 µL on 6 mm disc",,inhibition zone diameter,16 ± 0.5 mm
C[C@@H](N)[C@H](O)CCCCCCCC(=O)CCCCCCCCCCCCCC[C@@H](O[C@@H]1O[C@H](CO)[C@@H](O)[C@H](O)[C@H]1O)[C@@H](N)CO,"microbial growth, resazurin",ATCC12600,50 µM,,inhibition,98%
COc1cc(NC(=O)Nc2cccc(C(=O)N3CCC(C)CC3)c2)cc(OC)c1,checkerboard,"CRB, PBP4 overexpressor","25 µM, together with: ceftobiprole",reference: ceftobiprole alone over combination,MIC fold reduction,> 2
Cc1ccc(CNC(=O)Cc2c(C)nc3ccc(C)cn23)cc1,microbial growth,SG511,"2 mM, 20 h",,inhibition zone,0 mm
CC[C@H](C)[C@@H]1NC(=O)[C@@H](CCCNC(=N)N)NC(=O)[C@@H](NC(=O)[C@@H](CC(C)C)NC(=O)[C@H](C)NC(=O)[C@H](C)NC(=O)[C@@H]2CCCN2C(=O)[C@@H](CC(C)C)NC(=O)[C@@H](NC(=O)[C@@H](CCCNC(=N)N)NC(=O)[C@@H](CC(C)C)NC(=O)[C@@H](CC(C)C)NC(=O)[C@@H](NC(=O)[C@@H](CCCNC(=N)N)NC(=O)[C@@H](CC(C)C)NC(=O)[C@@H](NC(=O)[C@@H](NC(=O)CNC(=O)[C@@H](CC(C)C)NC(=O)[C@@H](N)Cc2ccccc2)[C@@H](C)O)C(C)C)C(C)C)C(C)C)CSSC[C@@H](C(=O)O)NC(=O)[C@@H](CCCNC(=N)N)NC(=O)[C@@H](CCCNC(=N)N)NC(=O)[C@H](Cc2ccccc2)NC1=O,,"MRSA NCTC 12493, Galleria mellonella larvae","16 mg/kg, planktonic infection",,survival rate,20%
COc1ccc(-c2[nH]c3ccccc3c2C[C@H]2NC(=O)[C@@H](CO)NC(=O)[C@@H](C(C)C)NC(=O)[C@H](Cc3ccccc3)NC(=O)[C@@H](C(C)C)NC(=O)[C@@H](C)NC(=O)[C@H](CO)NC2=O)c(OC)c1,broth dilution,,,,MIC90,> 50 µM
N=C(N)NCCC[C@H](NC(=O)[C@H](CCCNC(=N)N)NC(=O)[C@H](CCCNC(=N)N)NC(=O)[C@H](CCC(N)=O)NC(=O)[C@H](CCCNC(=N)N)NC(=O)[C@H](CCCNC(=N)N)NC(=O)[C@H](CCCCN)NC(=O)[C@H](CCCCN)NC(=O)[C@H](CCCNC(=N)N)NC(=O)CNC(=O)[C@H](Cc1ccc(O)cc1)NC(=O)[C@H](Cc1ccccc1)NC(=O)[C@H](Cc1ccccc1)NC(=O)[C@H](Cc1ccccc1)NC(=O)OCC1c2ccccc2-c2ccccc21)C(=O)O,"ELISA, refers to: TNF-α, IL-1β, IL-6","RAW264.7 29213, cell supernatant","32 µM, 4 h",,pro-inflammatory cytokine levels,decreased

# A few entries again:
SMILES,assay,system,conditions,how to read,endpoint,value
CC1COC2=C1C(=O)C(=O)c1c2ccc2c1C(OC(=O)CNC(=O)CN)CCC2(C)C (mixture of isomers),,,"10 µmol/mL, 48 h, 10 µL on 6 mm disc",,inhibition zone diameter,16 ± 0.5 mm
